Measured values from different studies.
Lines come from different studies, so protocols differ. ± marks the error that the study gave.

SMILES | test | test system | conditions | measurement | value
CCCCCCCCCCC(=O)O[C@H]1CC[C@H]2[C@@H]3CCC4=CC(=O)CC[C@]4(C)[C@H]3CC[C@]12C |  | human blood | 600 ng/mL, 60 min, 4 °C, NaF 5 mg/mL, K2 oxalate 4 mg/mL | testosterone concentration | 494 ng/dL
Cc1ncc2n1-c1ccc(Cl)cc1C(c1ccccc1F)=NC2 |  | healthy men, plasma | oral, 7.5 mg, without amenamevir | Cmax arithmetic mean | 35.2 ng/mL
COc1ccc2c(c1)[C@]13CCCC[C@@H]1[C@H](C2)N(C)CC3 |  | Wistar rat, both sexes, plasma | oral, 5 mg/kg, 2 h after pretreatment, together with: single TCE 400 mg/kg | MRT(0-t) | 2.43 ± 0.54 h
N[C@@]1(c2ccccc2Cl)CCC[C@@H](O)C1=O |  | male CD-1 mice, plasma | intravenous, 50 mg/kg, 10 min, first sampling, not true peak | Cmax | 16000 ng/mL
C[C@H]1CNCCc2ccc(Cl)cc21 |  | Sprague-Dawley rat, male, plasma | subcutaneous, 3 mg/kg, 30 min | plasma concentration | 97.5 ± 7.97 ng/mL
Cc1ncc2n1-c1ccc(Cl)cc1C(c1ccccc1F)=NC2 |  | human CYP3A5*3/*3 non-expressers, serum | oral, median, together with: ketoconazole 400 mg | Tmax | 1 h
C[C@@H]1N=C(c2ccccc2F)c2cc(Br)ccc2NC1=O |  | male Wistar rat, plasma | intraperitoneal, 10 mg/kg, 20 min | concentration | 1590 nM
C=C1C[C@@H]2[C@H](CC[C@]3(C)C(=O)CC[C@@H]23)[C@@]2(C)C=CC(=O)C=C12 | LC-MS/MS | postmenopausal breast cancer women, plasma | oral, 25 mg/day, 2 h, CYP3A4*22 heterozygous | median plasma concentration | 10.7 ng/mL
COc1ccsc1CNCC[C@@]1(c2ccccn2)CCOC2(CCCC2)C1 |  | healthy human, normal renal function, plasma | intravenous, 1 mg single dose, geometric mean | clearance | 922 mL/min
CN1CC[C@@]23CCCC[C@@H]2[C@@H]1Cc1ccc(O)cc13 |  | Wistar rat, both sexes, plasma | oral, 5 mg/kg DEM, DEM 2 h after pretreatment, together with: TCE 100 mg/kg single pretreatment | AUC(0-t) | 65.9 ± 32.6 ng·h/mL

Some of these lines once more:
SMILES | test | test system | conditions | measurement | value
Cc1ncc2n1-c1ccc(Cl)cc1C(c1ccccc1F)=NC2 |  | human CYP3A5*3/*3 non-expressers, serum | oral, median, together with: ketoconazole 400 mg | Tmax | 1 h
